Results of several laboratories.
Lines come from different studies, so protocols differ.
GBA1 R534H: Lysosomal acid glucosylceramidase (GBA1, Homo sapiens, UniProt P04062, R534H)
CFTR del508-508: Cystic fibrosis transmembrane conductance regulator (CFTR, Homo sapiens, UniProt P13569, del508-508)
gyrA/gyrB: DNA gyrase (gyrA/gyrB, Escherichia coli, UniProt P0AES4+P0AES6)

COc1ccc(C2(C(=O)N3CCC(Nc4nc5ccccc5c(=O)[nH]4)CC3)CC2)cc1  EC50 (MRGPRD (Homo sapiens, UniProt Q8TDS7, N157A); miniGq recruitment, BRET1; N157A mutant): 45.7 nM
O=C(O)CC(NC(=O)c1ccc(-c2ccc(F)cc2)o1)C(=O)O (centres unmarked)  EC50 (Succinate receptor 1 (Sucnr1, Mus musculus, UniProt Q99MT6); inositol phosphate, agonist): 425 nM
CCCCOCCCCCN1C[C@H](O)[C@@H](O)[C@H](O)[C@H]1CO  IC50 (GBA1 R534H; inhibitor, 4MU-β-D-glucopyranoside; with: 4MU-β-D-glucopyranoside): 30000 nM
CCOC(=O)c1c(S(=O)(=O)Nc2ccc(C(C)(C)C)cc2)c(-c2ccccc2)n(-c2ccccc2)c1C  EC50 (CFTR del508-508; cell-based): 260 nM
COc1cc(C2C(NC(=O)c3ccc(NC(=O)OC(C)(C)C)cc3)(C(=O)O)C(c3ccc(OC(=O)c4cccs4)c(OC)c3)C2(NC(=O)c2ccc(NC(=O)OC(C)(C)C)cc2)C(=O)O)ccc1OC(=O)c1cccs1 (centres unmarked)  EC50 (Glucagon-like peptide 1 receptor, with β-arrestin 1 (GLP1R, Homo sapiens, UniProt P43220); β-arrestin 1 recruitment, agonist, BRET): 50100 nM
Cc1cc(=O)[nH]c(-n2nc(-c3cccs3)cc2NC(=O)C2(c3ccc(Cl)cc3)CCCC2)n1  EC50 (CFTR del508-508; plasma membrane density, corrector, PM-ELISA): 2530 nM
N.N.[Cl][Pt+].c1ccc2c(c1)cnc1ccccc12  EC50 (gyrA/gyrB; supercoiling inhibition): 87000 nM
Cc1ccccc1-c1ccc(COCCCCCN2C[C@H](O)[C@@H](O)[C@H](O)[C@H]2CO)cc1  IC50 (GBA1 R534H; inhibitor, 4MU-β-D-glucopyranoside; with: 4MU-β-D-glucopyranoside): 70 nM
CNc1ncnc2c1ncn2C1OC(CO)C(O)C1O (centres unmarked)  EC50 (Adenosine receptor A3 (ADORA3, Homo sapiens, UniProt P0DMS8, L264F); G protein activation, agonist): 1100 nM
O=C(NC[C@@H](Cc1ccc(F)cc1)N1CCC(O)(C(F)(F)F)CC1)C1(c2ccc(Cl)cc2)CCCC1  EC50 (Transient receptor potential cation channel subfamily A member 1 (TRPA1, Homo sapiens, UniProt O75762, T874A)): 13000 nM
Cn1c(=O)n(C2CCC(=O)NC2=O)c2ccc(C3CCN(CC(=O)Nc4cccc(CS(=O)(=O)N5CC[C@H](Nc6cccc(-c7sc(C(=O)O)c(OCC(=O)O)c7Cl)c6)CC5(C)C)c4)CC3)cc21 (some centres unmarked)  EC50 (Tyrosine-protein phosphatase non-receptor type 2 (PTPN2, Homo sapiens, UniProt P17706); phosphatase activity; with: DiFMUP substrate): 15.1 nM
CCOC(=O)c1c(S(=O)(=O)Nc2ccc(C(F)(F)F)cc2)c(-c2ccccc2)n(-c2ccccc2)c1C  EC50 (CFTR del508-508; ion flux, activator): 340 nM
O=C1C[C@H](c2nc(-c3ccc(F)c4cn[nH]c34)no2)CCCN1c1ccc(F)cc1 (racemic)  EC50 (Cannabinoid receptor 2 (CNR2, Homo sapiens, UniProt P34972, F94A); cAMP, agonist, luciferase): 813 nM
CCN(CC)C(CO)c1cccc2c(C)c(C)oc12 (centres unmarked)  EC50 (Lysophosphatidic acid receptor 1 (LPAR1, Homo sapiens, UniProt Q92633, W271F); Gi activation, agonist, NanoBiT G-protein dissociation; HEK293T; W271F mutant): 20 nM
Cl.[Cl][Ru-4]123([n+]4ccccc4-c4cc(-c5ccccc5)cc([n+]41)-c1cccc[n+]12)[n+]1ccc(-c2ccccc2)c2ccc4c(-c5ccccc5)cc[n+]3c4c21  EC50 (gyrA/gyrB; supercoiling inhibition): 37800 nM
O=C(Cc1ccc(OCc2ccccc2)cc1)NC1(C(=O)O)CCN(C(=O)c2ccc(-c3cccc(Cl)c3)cc2)CC1  EC50 (Lysophosphatidic acid receptor 2 (LPAR2, Homo sapiens, UniProt Q9HBW0); cAMP, agonist, luciferase): > 10000 nM
CCOC(=O)c1c(S(=O)(=O)Nc2ccc([N+](=O)[O-])cc2)c(-c2ccccc2)n(-c2ccccc2)c1C  EC50 (CFTR del508-508; ion flux, activator): 1210 nM

A few entries again:
CCOC(=O)c1c(S(=O)(=O)Nc2ccc(C(C)(C)C)cc2)c(-c2ccccc2)n(-c2ccccc2)c1C  EC50 (CFTR del508-508; cell-based): 260 nM
